# Published values collected from several papers.
# Numbered parts are unrelated; each lists some results of a single study. Changes are numbered by the printed parent chain.

# Series 1
# Target: Histone acetyltransferase KAT6A, winged helix 1, GST fusion (KAT6A, Homo sapiens, UniProt Q92794, residues 1-85)
# Technique: protein binding microarray
# Form: double-stranded DNA, one strand shown
# Sample: in vitro
# Tested at: not given
# Notes: 8-mer, flanks averaged, mean of 2 arrays, mostly near background
# Relative to: not given
# Direction: higher = stronger binding
# Target sequence (chain): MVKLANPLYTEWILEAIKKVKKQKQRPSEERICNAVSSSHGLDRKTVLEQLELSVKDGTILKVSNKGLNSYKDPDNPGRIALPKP
Oligonucleotide,E-score
GACAAAAC,-0.141
CTATCCTC,-0.195
ACGATGCT,-0.00492
ACCCTCAT,-0.294
TCCGTACA,0.216
TACTTGGA,-0.124

# Series 2
# Target: Interferon regulatory factor 5, full length, phosphomimetic (IRF5, Homo sapiens, UniProt Q13568-2, residues 1-514, K96S/S451D/S453D/S456D/S462D)
# Technique: protein-binding microarray
# Form: double-stranded DNA, one strand shown
# Sample: in vitro
# Tested at: 250 nM
# Notes: 60-bp whole probe
# Added: salmon DNA 0.4 mg/ml
# Relative to: random background probes
# Direction: higher = stronger binding
# Constant ends, left off below: GCCTAGCAC … GTCTTGATTCGCTTGACGCTGCTG
Oligonucleotide,log fluorescence
GGTGGTCTGGGACCCTCCCCGTGCTAG,-0.461 z-score
TCATTTTTCCCTCTGGAACTGTGCTAG,0.911 z-score
GACGATTACGGGACTGGAGACGTGCTA,-0.22 z-score
TTAGCTCTCGGTTTCGGTTAGTGCTAG,9.17 z-score
GACGATATCAGACTGGAGTCGTGCTAG,0.427 z-score
TTAGGACTGGACTAACGGTTAGTGCTA,-0.441 z-score
TTAGATTTCGGCACTGGATTAGTGCTA,3.01 z-score

# Series 3
# Target: CCNB2, cyclin fold, Cln2 fusion (human)
# Technique: yeast growth competition, sequencing
# Sample: yeast
# Notes: weak parent motif
# Relative to: not given
# Direction: higher = stronger binding
# Parent: RBL2 docking peptide (human); STTRRRLFVENDS
Variant,normalised enrichment score
R5V,0.0855
D12M,0.297
N11L,0.616
T2W,0.326

# Single results of other studies
Molecule,target,assay,test system,setting,how to read,endpoint,value
"PhoQ, residues 284 288 289 292 302 303 TAVSDG","PhoP, residues 12 14 15 18 19 NHFRA (Escherichia coli, UniProt P23836)","Sort-seq, refers to: YFP reporter",E. coli,"PhoQ-PhoP variant library, added: 10 µM Mg2+","relative to: high Mg2+ state, higher = stronger signaling",fold induction,1.65

# A few entries again (series 3):
Variant,normalised enrichment score
R5V,0.0855
D12M,0.297
